# Published values gathered from unrelated publications.
# A part holds a random share of what one study measured. Substitutions count along the parent as printed.

# Set 1
# Target: CCNA1, cyclin fold, Cln2 fusion (human)
# Method: yeast growth competition, sequencing
# Sample: yeast
# Setting: weak parent motif
# Reference: not given
# Direction: higher = stronger binding
# Starting sequence: PKN2 docking peptide (human); VSAVQKLDFSDTM; partner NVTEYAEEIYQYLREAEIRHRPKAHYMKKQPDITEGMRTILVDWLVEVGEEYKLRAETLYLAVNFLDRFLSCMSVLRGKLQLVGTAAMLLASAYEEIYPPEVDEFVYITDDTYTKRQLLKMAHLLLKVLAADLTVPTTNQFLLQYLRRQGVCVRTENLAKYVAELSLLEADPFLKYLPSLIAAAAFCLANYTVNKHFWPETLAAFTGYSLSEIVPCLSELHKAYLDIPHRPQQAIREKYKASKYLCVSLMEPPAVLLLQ
Substitution,normalised enrichment score
VSAVQQLDFSDTM [K6Q],0.518
FSAVQKLDFSDTM [V1F],0.39
VSAVQKLDSSDTM [F9S],0.582

# Set 2
# Target: Interferon regulatory factor 5, full length, phosphomimetic (IRF5, Homo sapiens, UniProt Q13568-2, residues 1-514, S451D/S453D/S456D/S462D)
# Method: protein-binding microarray
# Molecule type: double-stranded DNA, one strand shown
# Sample: in vitro
# Tested at: 940 nM top
# Setting: 60-bp whole probe
# Together with: salmon DNA 0.4 mg/ml
# Reference: random background probes
# Direction: higher = stronger binding
# Constant ends, left off below: GCCTAGCAC … GTCTTGATTCGCTTGACGCTGCTG
Sequence,fitted relative affinity [z-score]
CTTGTTTTACAATTTGCTTTGTGCTAG,-0.0408
GACGGTCTCGGACTGGGGCCGTGCTAG,0.407
GACGATCTCCGACTGGAGACGTGCTAG,-0.565
TTAGAATTCGGGTTTCGATTAGTGCTA,5.78
TACGGACTGCTTCTCCTGACGTGCTAG,-0.19
TACTTTCTATGTCTGTTTTTGTGCTAG,4.22
TCAGGTATCCTTTTCCTTTAGTGCTAG,0.64

# Set 3
# Target: Histone acetyltransferase KAT6A, both winged helices, GST fusion (KAT6A, Homo sapiens, UniProt Q92794, residues 1-181)
# Method: protein binding microarray
# Molecule type: double-stranded DNA, one strand shown
# Sample: in vitro
# Tested at: not given
# Setting: 8-mer, flanks averaged, mean of 2 arrays, mostly near background
# Reference: not given
# Direction: higher = stronger binding
# Residues (chain): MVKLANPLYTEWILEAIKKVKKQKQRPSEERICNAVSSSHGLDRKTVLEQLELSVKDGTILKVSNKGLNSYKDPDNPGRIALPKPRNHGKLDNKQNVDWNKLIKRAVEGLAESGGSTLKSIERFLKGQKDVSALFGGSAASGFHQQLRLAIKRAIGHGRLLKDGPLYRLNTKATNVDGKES
Sequence,E-score
CGACAAGA,0.0248
CATTCTGG,-0.0557
ATTAGCTA,-0.133
ACCCCCGA,-0.0166
AGCTTTAA,-0.0516

# Other studies, line by line
Substance,target,test,system,conditions,scale,quantity,result
"PhoQ, residues 284 288 289 292 302 303 NLCILV","PhoP, residues 12 14 15 18 19 LHSVW (Escherichia coli, UniProt P23836)","Sort-seq, measured: YFP reporter",E. coli,"PhoQ-PhoP variant library, together with: 10 µM Mg2+","reference: high Mg2+ state, higher = stronger signaling",fold induction,5.17

# Some of these lines once more (set 2):
Sequence,fitted relative affinity [z-score]
GACGGTCTCGGACTGGGGCCGTGCTAG,0.407
GACGATCTCCGACTGGAGACGTGCTAG,-0.565
